# Measured values pooled from the literature.
# Each numbered part is a random draw from the data of one study; scales do not carry over between parts.

# Sample 1 — technique: RNA Bind-n-Seq; molecule type: RNA; matrix: in vitro; tested at: 365 nM; relative to: no-protein control; direction: higher = stronger binding
# Target: RNA binding protein fox-1 homolog 2, RRM domain, GST-SBP tag (RBFOX2, Homo sapiens, UniProt O43251-10, residues 100-194)
# Notes: natural RNA segment, single round, ends assumed
# Shared flanks, not repeated: GGGAGUUCUACAGUCCGACGAUC … UGGAAUUCUCGGGUGCCAA
# Residues (chain): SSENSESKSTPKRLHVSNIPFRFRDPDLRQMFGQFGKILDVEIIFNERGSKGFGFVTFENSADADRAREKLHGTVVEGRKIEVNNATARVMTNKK
Sequence,RBNS enrichment (R)
AAUGCCUCAGGAGUCCGGCAUAUACAACCAAAUUAUCAUGCUCAGGAUCUUCAGAAUUCUAAAGGCACAUGUUAGAAUGCAGAGUCCUGAUGACCUGUCAAUAAACUUUU,1.08
CACUAUGAACAGAACCCUGCCCAUGAGAGGCACUUGUAGGUGAAACUCUCUUUUCUUGUUCUUUUUGUGCUCAAGACCCACUGUUAUAGGAAUAAAGUUUAUGAGCUCAA,0.437
CCUCAGGGACCACUCCCCCAGCACUUUUGUGUUUGGGUGAGGGAUGUUGGACAGAGCCCAUUUUUAUGUGCUGCAGGUUGGGGGUUGUGCUAACACUUUUGCUCUUGGUU,0.561
GCCUUGCUCCAGCAGCAGCACGGCCUAGCCCAACCCAGCCCAACCCGGCCCAACCCAGCCCAGCCCAGCUCAGCUCAGCUACUGCCAAGGGCAGGACCAAUGGCUGAGCC,0.233
CCUUUUCCUUCACCAUCUAUGGGAUAUUAGGGGCAGAAUCUGCCACUUCUUGCCCAGGAGUGUGCACAGAUGUAAGAUAAUUUUGUGAAAUAAUGUACCAUAGACUCUCA,0.328
GUCACCAGUGAGCCAUAUUUAUUAUUUCUAGAGAAAUCACGAACUGCUUUCUGUAAUUGCACUGUGGAUAAAUGUUCCGAGAGUCUCCAUUGUUGUACAGGAUCUUCAGU,0.79
GAGGUGGAGGUUACAGUGAGCUGAGAGUGCCCCACUGCACUCCAGCCUGGGUGACAGAGCGAGACUUUGUCCCAAAACAAAAUAGGUGAGGGGAUAGCGAAUGCACUCAG,0.928
AGAAAUUUAUAAUGAAAAGAAGAUGAAUUUCAUUAUGUAAACGCUCAGGCAUGACUACGCUGUUUGAAACAGACAGAUGUUUACUCUUCCUUGUAAUGAGUAGGUUUGGA,1.22

# Sample 2 — technique: RNA Bind-n-Seq; molecule type: RNA; matrix: in vitro; tested at: 200 nM; notes: whole 134-nt RNA, ends assumed; added: 150 mM KCl; relative to: input library; direction: higher = stronger binding
# Target: Fragile X messenger ribonucleoprotein 1, C-terminal low-complexity region (Fmr1, Mus musculus, UniProt P35922)
# Shared flanks, not repeated: GGGAGUUCUACAGUCCGACGAUC … UGGAAUUCUCGGGUGUCAAGG
Sequence,log2 enrichment
UCCUCAAGUCCUGUGCUACACAUCGUAUGUACCGAAUCGGCGGGCGGGCGGAAAGUAUUAUGUUACGCCGUUCGGAUCUGCACUUCCAGC,-0.0989
CAAGUCCUGUGCUACACAUCGUAUGUACCGAAUCGGUUUGGGGUUUGGGGUUUGGGAAAGUAUUAUGUUACGCCGUUCGGAUCUGCACUU,0.102
AGUCCUGUGCUACACAUCGUAUGUACCGAAUCGGGAGGGUUUUUUUGGGUUUUUGGGAAAGUAUUAUGUUACGCCGUUCGGAUCUGCACU,0.217
UAACUUUAGAGGAGGAUCUGAUGGACAUGGCAGUGGACGUGGAUUUGGGGAUGGCUAUAAUGGGUAUGGAGGAGGACCUGGAGGUGGCAA,0.282
UGGCCCUGGUGGCAUGCGGGGAGGAAGAGGUGCCCUCAUGGAUCGUGGUGGUCCCGGUGGAAUGUUCAGAGGUGGCCGUGGUGGAGACAG,0.0532
CAAGUCCUGUGCUACACAUCGUAUGUACCGAAUCGGGUGGGAAAGGGUUUUUGGGAAAGUAUUAUGUUACGCCGUUCGGAUCUGCACUUC,0.748
UGGCCCUGGUGGCAUGCGGGGAGGAAGAGGUGGGCUCAUGGAUCGUGGUGGUCCCGGUGGAAUGUUCAGAGGUGGCCGUGGUGGAGACAG,0.505
UCCUGUGCUACACAUCGUAUGUACCGAAUCGGGGAGGGGAAAAAAAGGGGAAAAAGGGGAAAGUAUUAUGUUACGCCGUUCGGAUCUGCA,0.385
AAGUCCUGUGCUACACAUCGUAUGUACCGAAUCGGCCCCGGGGCCCCGGCCCCGGGGAAAGUAUUAUGUUACGCCGUUCGGAUCUGCACU,-1.16

# Sample 3 — technique: protein-binding microarray; molecule type: double-stranded DNA, one strand shown; matrix: in vitro; tested at: 2200 nM top; notes: 60-bp whole probe; added: salmon DNA 0.4 mg/ml; relative to: random background probes; direction: higher = stronger binding; shared flanks, not repeated: GCCTAGCAC … GTCTTGATTCGCTTGACGCTGCTG
# Target: Interferon regulatory factor 7, full length, phosphomimetic (IRF7, Homo sapiens, UniProt Q92985, residues 1-503, S471D/S472D/S475D/S476D/S477D/S483D/S484D/S487D)
# Residues (chain): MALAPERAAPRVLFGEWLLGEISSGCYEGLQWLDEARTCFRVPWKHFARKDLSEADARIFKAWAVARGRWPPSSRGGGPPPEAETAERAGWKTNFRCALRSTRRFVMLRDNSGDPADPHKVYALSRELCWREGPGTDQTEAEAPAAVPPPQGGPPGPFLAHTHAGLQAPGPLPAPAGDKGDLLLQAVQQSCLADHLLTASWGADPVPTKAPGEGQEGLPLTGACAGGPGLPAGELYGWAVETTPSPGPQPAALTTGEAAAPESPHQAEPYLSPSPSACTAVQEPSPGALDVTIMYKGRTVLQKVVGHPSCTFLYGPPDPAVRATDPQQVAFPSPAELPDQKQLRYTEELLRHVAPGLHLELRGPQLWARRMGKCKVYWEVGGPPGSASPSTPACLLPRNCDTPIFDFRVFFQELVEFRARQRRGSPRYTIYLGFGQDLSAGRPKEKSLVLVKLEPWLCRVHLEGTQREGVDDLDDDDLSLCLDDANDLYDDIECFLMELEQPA
Sequence,fitted relative affinity
TCATAAATGATATATATCACTGTGCTA,0.00887 z-score
TCTACTTCTCTTTTGGCTTTGTGCTAG,3.08 z-score
TTTAAATTCTAATTAGAATTGTGCTAG,-0.641 z-score
CTGCCTTTCAATCCTAGGCCGTGCTAG,0.761 z-score
TCAGGTATCCTTATCCTTTAGTGCTAG,1.25 z-score
GGGCATTTGGAAAATGAAAATGTGCTA,-0.757 z-score
GACGAACTGGGGTATTGAGACGTGCTA,0.324 z-score
GAGTTTCCATTTTCTGAATGCGTGCTA,6.3 z-score
CGACATTTTTATTTGCCTTAGTGCTAG,1.1 z-score
AGTGTCATGTTTCTATGGGCGTGCTAG,0.813 z-score
AAGGGTTAAAATTTTGCTTCGTGCTAG,-0.338 z-score
TTAGATCTCAGACTGGATCAGTGCTAG,-0.0662 z-score
GACGGTTTCGCTATCGGGACGTGCTAG,5.84 z-score
TTAGTACTGGGACTGGGTTAGTGCTAG,-0.161 z-score
TGATAAATCTTTGTTGGAGGGGTGCTA,-0.473 z-score
GACGAACTGAGACTGAAGACGTGCTAG,-0.164 z-score
TTAGGTCTCGTTTTCCTTTAGTGCTAG,3.56 z-score
GACGAACTGAGACTGGCGACGTGCTAG,-0.18 z-score
GACGGACTGGGCTTTCGGGACGTGCTA,0.46 z-score

# Sample 4 — technique: RNA Bind-n-Seq; molecule type: RNA; matrix: in vitro; tested at: not given; relative to: input RNA pool; direction: higher = stronger binding
# Target: RING finger protein unkempt homolog, zinc fingers 1-6, GST-SBP tag (UNK, Homo sapiens, UniProt Q9C0B0, residues 30-357)
# UniProt Q9C0B0, sequence (30-357, looked up): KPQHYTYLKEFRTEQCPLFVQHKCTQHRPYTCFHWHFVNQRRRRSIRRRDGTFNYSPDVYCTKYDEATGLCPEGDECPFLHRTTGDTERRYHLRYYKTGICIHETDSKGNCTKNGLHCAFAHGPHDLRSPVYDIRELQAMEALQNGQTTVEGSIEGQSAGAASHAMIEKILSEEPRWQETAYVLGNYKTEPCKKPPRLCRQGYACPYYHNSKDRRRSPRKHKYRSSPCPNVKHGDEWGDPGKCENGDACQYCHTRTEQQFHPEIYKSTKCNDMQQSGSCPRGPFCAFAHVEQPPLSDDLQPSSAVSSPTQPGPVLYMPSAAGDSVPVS
# Notes: RNA with constant flanks, human-mouse chimeric sites, ends assumed
# Shared flanks, not repeated: GGGAGUUCUACAGUCCGACGAUC … CAACAGAGGAUUGAGCAUCA
Sequence,bound/input enrichment [ratio]
CGCUGGCCCAAGCUGAUGGACUCUGAUGGCCUCCAUCUCUCAGGCACGUUUGCCUUCUCUUAGUCCCUGUUUUCGGGAUGUUAUGAAUCUCAGUACUGUGGUUUGAAAGCACCAGCUUUG,0.155
CAACCUCAGAGCCCAGACUUCCUGGAUAUUACCAACCCUAAAGCGGUAUUAGAAAAUGCAUUGAGAAACUUCGCCUGUCUGACGACUGGAGAUGUGAUUGCCAUCAACUACAAUGAGAAG,0.312
GGAAUUGCUGAUUCAAGUAAGUUUGAGUAUCACAAUGUUAGCUUUCUAAUUCCAUAAAAGUACUUGGUUUUUACAGUUUAUAAUCUGACAUCACCCCCCGUUUAUAAGUAAAGAGCAACU,1.33
CAGCCUCAGAGCCCAGACUUCCUGGAUAUUACCAACCCCAAAGCCGUAUUAGAAAAUGCAUUGAGAAACUUCGCCUGUCUGACGACUGGAGAUGUGAUUGCUAUCAACUACAAUGAGAAG,0.525
GAAUCCUACUCAGGCGGAUUUUGCAACCUGAAUGCAACAGCAGCAGCAUCUUAGUCACAGUAGGGUAGCUUUAGGGCUCUGUGGCCAGGGUUUUAUUCACAUGCAGGUUUGGAAAAUGUA,0.79
CAGCCUCAGAGCCCAGACUUCCUGGAUAUUACCAACCCUAAAGCGGUAUUAGAAAAUGCAUUGAGAAACUUUGCCUGUCUGACGACUGGAGAUGUGAUUGCCAUCAACUACAAUGAGAAG,0.464
AAAGAGUGGAUAGAAUGUGCACACGGGAUCGGUUAUACCCGGGCGAAAAAGGAGUGCAAGAUAGAGUUCGAUGACUUCGAAGAGUGCUUGCUUCGGUACAAAACGAUGAGGCGAAUGCAU,0.42
GACUUGGACCUUCCUGGGGCUAGUACAAAUAGCGGCAGUGGAGGCUCGAGAGGAAAGUUUGUUAGUGGAGGCAGUGGUAGAGGCCGUCAUGUACGGUCCUUUACUCGAUAGAUGUGUUCU,0.187

# Excerpt of the above (sample 3):
Sequence,fitted relative affinity
TTAGATCTCAGACTGGATCAGTGCTAG,-0.0662 z-score
GACGGTTTCGCTATCGGGACGTGCTAG,5.84 z-score
TTAGTACTGGGACTGGGTTAGTGCTAG,-0.161 z-score
